Earlier results as cited in several papers.
± gives the spread as reported.
ADRA1D: Alpha-1D adrenergic receptor (ADRA1D, Homo sapiens, UniProt P25100)
Chain of UniProt P25100 (whole entry, looked up): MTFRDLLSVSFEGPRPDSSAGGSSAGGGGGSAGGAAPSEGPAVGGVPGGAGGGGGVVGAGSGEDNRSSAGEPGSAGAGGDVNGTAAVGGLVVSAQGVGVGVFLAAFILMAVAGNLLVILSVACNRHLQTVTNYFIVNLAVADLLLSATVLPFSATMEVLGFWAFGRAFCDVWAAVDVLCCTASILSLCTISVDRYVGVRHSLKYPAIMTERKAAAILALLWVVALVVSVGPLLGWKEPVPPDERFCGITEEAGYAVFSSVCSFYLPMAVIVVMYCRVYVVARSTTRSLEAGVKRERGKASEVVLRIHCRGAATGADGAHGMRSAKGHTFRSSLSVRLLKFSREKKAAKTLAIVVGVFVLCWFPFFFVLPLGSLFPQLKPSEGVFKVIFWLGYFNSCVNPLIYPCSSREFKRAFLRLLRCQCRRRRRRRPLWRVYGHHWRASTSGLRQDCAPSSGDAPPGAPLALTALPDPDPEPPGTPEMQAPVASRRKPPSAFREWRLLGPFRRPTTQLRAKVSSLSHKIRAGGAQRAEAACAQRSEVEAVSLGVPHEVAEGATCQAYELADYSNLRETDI
Chain of UniProt P21554 (whole entry, looked up): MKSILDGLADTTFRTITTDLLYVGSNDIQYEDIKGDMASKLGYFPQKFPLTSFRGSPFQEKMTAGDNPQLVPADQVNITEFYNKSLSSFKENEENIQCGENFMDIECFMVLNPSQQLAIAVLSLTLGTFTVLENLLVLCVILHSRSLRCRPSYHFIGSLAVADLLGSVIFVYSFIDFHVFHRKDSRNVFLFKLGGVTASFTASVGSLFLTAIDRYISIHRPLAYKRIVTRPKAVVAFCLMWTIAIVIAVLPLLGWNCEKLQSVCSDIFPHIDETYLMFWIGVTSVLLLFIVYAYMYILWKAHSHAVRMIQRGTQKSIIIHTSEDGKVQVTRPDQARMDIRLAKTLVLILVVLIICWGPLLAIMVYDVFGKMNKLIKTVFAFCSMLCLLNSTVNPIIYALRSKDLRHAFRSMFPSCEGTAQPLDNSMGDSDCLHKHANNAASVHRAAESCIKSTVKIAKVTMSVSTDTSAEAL

SMILES	target	test	system	conditions	measurement	result
Cc1ccccc1-c1cc(N2CCN(C)CC2)ncc1N(C)C(=O)C(C)(C)c1cc(C(F)(F)F)cc(C(F)(F)F)c1	CYP3A4 (human)	inhibitor	human	concentration not given, added: dexamethasone, erythromycin, midazolam	exposure of co-dosed substrates	increased
CN1CCC[C@H]1c1cccnc1	CYP2B6	substrate	–	–	Km	184 to 269 µM
CCCCCCCCCC(=O)N[C@@H](Cc1c[nH]c2ccccc12)C(=O)N[C@H](CC(N)=O)C(=O)N[C@@H](CC(=O)O)C(=O)N[C@@H]1C(=O)NCC(=O)N[C@@H](CCCN)C(=O)N[C@@H](CC(=O)O)C(=O)N[C@H](C)C(=O)N[C@@H](CC(=O)O)C(=O)NCC(=O)N[C@H](CO)C(=O)N[C@@H]([C@H](C)CC(=O)O)C(=O)N[C@@H](CC(=O)c2ccccc2N)C(=O)O[C@@H]1C	serum albumin	binding	–	–	Kd	90.3 µM
Cc1cc(O)c2c(=O)c3c(O)cc(O)c4c5c(O)cc(O)c6c(=O)c7c(O)cc(C)c8c1c2c(c34)c(c78)c65	UGT1A6	enzyme activity, inhibitor	recombinant enzyme insect cells	added: serotonin glucuronidation	IC50	0.59 µM
CN(C)C(=O)CCSC(SCCC(=O)O)c1cccc(/C=C/c2ccc3ccc(Cl)cc3n2)c1 (centres unmarked)	MRP2 (ABCC2)	inhibitor	–	–	IC50	10 µM
CN1[C@@H]2CC[C@H]1C[C@@H](OC(=O)c1c[nH]c3ccccc13)C2	CYP2D6	inhibitor	–	–	Ki	16 µM
Cc1ccc(OC(C)(C)C(=O)N[C@@H](C)[C@@H](Cc2ccc(OCCF)cc2)c2cccc(C#N)c2)nc1 [fluorine-18 labelled]	CNR1 (Homo sapiens, UniProt P21554)	PET	human, frontal cortex	–	VT	22.4 ± 13.1 mL/cm³
Cc1ccc(OCC(=O)N(Cc2cccs2)c2ccn[nH]2)cc1	human CYP3A4	enzyme activity, inhibitor	human liver microsomes	added: midazolam	IC50	15 µM
O=C1OC(c2ccc(O)c(S(=O)(=O)O)c2)(c2ccc(O)c(S(=O)(=O)O)c2)c2c(Br)c(Br)c(Br)c(Br)c21	ABCC2 and OATP2B1, human	uptake, substrate	MDCK-II ABCC2/OATP2B1 transfected	–	Km	3.4 µM
C=CCN(CC=C)CCc1c[nH]c2ccccc12	ADRA1D	binding	cloned human receptor	added: [3H]prazocin	Ki	> 10 µM
C1CO1	glutathione S-transferase	glutathione conjugation, substrate	mouse, liver cytosol	–	Km	10000 µM
CN(C)C(=O)C(CCN1CCC(O)(c2ccc(Cl)cc2)CC1)(c1ccccc1)c1ccccc1	P-glycoprotein, human	refers to: 11C radioactivity brain to plasma	healthy human volunteers	intravenous, dose not given, added: ciclosporin 10 mg/kg intravenous infusion	brain distribution increase	110%
Clc1cc2c(cc1Cl)Oc1cc(Cl)c(Cl)cc1O2	mouse AHR	radioligand saturation binding	–	tritiated compound	Kd	0.00068 µM
C=CCN(CC=C)CCc1c[nH]c2ccc(OC)cc12	ADRA1D	–	–	–	Ki	> 10 µM
c1cc2c(cc1[C@H]1OC[C@H]3[C@@H]1CO[C@@H]3c1ccc3c(c1)OCO3)OCO2	CYP2C9	inhibitor	human liver microsomes	–	Ki	22 µM
CNC(=O)c1cc2c(Oc3ccc(NC(=S)NC(=O)Cc4ccccc4)cc3F)ccnc2cc1OC	CYP3A, human	enzyme activity, reversible inhibitor	–	added: midazolam	IC50	4.49 µM
C[C@@H](c1nc(-c2ccc(C#N)cc2)cs1)[C@](O)(Cn1cncn1)c1cc(F)ccc1F	UGT2B7 human	inhibitor	human liver microsomes	added: morphine	IC50	44 µM

Some of these lines once more:
SMILES	target	test	system	conditions	measurement	result
O=C1OC(c2ccc(O)c(S(=O)(=O)O)c2)(c2ccc(O)c(S(=O)(=O)O)c2)c2c(Br)c(Br)c(Br)c(Br)c21	ABCC2 and OATP2B1, human	uptake, substrate	MDCK-II ABCC2/OATP2B1 transfected	–	Km	3.4 µM
